Measurements collected from several papers.
Each numbered part is a random draw from the data of one study; scales do not carry over between parts.
Sequence of UniProt Q15077 (whole entry, looked up): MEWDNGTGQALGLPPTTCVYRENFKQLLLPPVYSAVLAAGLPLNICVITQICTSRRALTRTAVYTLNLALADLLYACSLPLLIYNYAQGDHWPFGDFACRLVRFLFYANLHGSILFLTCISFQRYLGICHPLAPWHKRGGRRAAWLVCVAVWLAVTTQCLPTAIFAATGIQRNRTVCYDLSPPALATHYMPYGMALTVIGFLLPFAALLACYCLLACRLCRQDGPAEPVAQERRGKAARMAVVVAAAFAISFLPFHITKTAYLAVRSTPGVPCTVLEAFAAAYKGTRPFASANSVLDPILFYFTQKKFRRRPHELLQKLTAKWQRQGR
Sequence of UniProt P24530 (whole entry, looked up): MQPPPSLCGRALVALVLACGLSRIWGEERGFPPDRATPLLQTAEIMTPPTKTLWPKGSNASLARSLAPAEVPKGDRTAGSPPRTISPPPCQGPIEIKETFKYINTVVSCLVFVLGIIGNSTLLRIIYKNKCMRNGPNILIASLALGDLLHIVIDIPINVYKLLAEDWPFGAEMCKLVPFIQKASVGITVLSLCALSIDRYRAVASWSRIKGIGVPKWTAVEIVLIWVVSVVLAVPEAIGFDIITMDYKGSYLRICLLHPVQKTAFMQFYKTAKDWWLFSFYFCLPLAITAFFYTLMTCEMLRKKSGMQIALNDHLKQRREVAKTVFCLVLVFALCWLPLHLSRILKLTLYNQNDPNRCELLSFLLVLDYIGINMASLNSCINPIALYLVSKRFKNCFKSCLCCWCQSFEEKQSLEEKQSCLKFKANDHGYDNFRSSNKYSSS
Sequence of UniProt P18825 (whole entry, looked up): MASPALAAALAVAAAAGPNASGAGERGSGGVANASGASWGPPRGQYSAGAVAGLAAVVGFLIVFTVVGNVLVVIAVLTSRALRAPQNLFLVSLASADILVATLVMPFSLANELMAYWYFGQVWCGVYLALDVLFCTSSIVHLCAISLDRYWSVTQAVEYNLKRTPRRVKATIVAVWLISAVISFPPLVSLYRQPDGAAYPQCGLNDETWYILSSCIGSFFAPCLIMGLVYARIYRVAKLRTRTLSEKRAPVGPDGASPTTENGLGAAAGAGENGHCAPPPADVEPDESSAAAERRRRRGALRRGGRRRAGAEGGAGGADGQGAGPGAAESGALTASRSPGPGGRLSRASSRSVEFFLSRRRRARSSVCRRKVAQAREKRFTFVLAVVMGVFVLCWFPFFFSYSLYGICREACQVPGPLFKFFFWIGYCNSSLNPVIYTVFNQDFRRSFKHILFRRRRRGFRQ
Sequence of UniProt P35348 (whole entry, looked up): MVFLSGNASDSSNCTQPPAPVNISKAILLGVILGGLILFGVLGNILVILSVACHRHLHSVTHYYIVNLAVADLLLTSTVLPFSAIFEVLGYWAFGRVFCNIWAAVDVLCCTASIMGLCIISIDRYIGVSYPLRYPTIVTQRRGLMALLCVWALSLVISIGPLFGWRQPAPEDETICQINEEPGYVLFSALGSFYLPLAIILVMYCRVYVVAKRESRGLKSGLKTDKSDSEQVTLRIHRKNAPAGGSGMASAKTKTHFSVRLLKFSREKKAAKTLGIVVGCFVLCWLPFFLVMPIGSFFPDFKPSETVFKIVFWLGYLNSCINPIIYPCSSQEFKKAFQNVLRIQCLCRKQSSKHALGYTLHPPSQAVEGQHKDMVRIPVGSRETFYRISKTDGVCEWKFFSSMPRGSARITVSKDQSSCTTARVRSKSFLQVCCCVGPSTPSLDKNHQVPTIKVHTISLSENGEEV
Sequence of UniProt Q8NGU9 (whole entry, looked up): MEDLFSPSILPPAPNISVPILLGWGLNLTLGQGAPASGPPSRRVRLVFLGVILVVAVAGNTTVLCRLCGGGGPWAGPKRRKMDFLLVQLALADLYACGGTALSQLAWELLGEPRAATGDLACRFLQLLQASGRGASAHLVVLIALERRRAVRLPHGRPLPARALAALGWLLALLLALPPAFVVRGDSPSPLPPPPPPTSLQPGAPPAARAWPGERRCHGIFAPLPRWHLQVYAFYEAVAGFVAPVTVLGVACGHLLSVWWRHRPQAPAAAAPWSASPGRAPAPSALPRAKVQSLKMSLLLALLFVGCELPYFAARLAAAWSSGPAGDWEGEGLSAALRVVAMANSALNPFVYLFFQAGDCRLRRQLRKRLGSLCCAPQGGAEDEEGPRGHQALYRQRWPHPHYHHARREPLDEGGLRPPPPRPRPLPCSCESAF
Sequence of UniProt Q99680 (whole entry, looked up): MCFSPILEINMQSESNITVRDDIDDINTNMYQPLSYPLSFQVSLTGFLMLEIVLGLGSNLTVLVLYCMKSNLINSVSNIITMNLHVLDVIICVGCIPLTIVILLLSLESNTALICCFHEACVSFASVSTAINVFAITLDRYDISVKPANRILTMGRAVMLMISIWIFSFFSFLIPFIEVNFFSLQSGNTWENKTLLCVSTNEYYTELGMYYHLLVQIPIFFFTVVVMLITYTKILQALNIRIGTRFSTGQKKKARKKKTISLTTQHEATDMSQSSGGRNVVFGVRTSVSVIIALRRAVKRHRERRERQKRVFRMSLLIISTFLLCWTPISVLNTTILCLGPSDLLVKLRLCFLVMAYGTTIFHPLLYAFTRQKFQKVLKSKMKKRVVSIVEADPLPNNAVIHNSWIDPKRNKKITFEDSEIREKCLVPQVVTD

Set 1 — technique: logD(dd/w) and ALogP; setting: JT method
`CC(C)C[C@@H]1NC(=O)[C@H](Cc2cscn2)NC(=O)[C@H](CC(C)C)NC(=O)[C@H](C(C)C)NC(=O)[C@H](CC(C)C)NC(=O)[C@@H](CC(C)C)NC(=O)[C@H](CC(C)C)NC1=O`: “lipophilic permeability efficiency” 2.41.
`CC(C)C[C@@H]1NC(=O)[C@H](C)NC(=O)[C@H](Cc2cscn2)NC(=O)[C@H](CCC(=O)N2CCCC2)NC(=O)[C@H](CC(C)C)NC(=O)[C@H](CC(C)C)NC(=O)[C@@H](CC(C)C)NC1=O`: “lipophilic permeability efficiency” 1.81.
For `CC(C)C[C@@H]1NC(=O)[C@H](C)NC(=O)[C@H](C(C)C)NC(=O)[C@H](C)NC(=O)[C@H](C)NC(=O)[C@H](CC(C)C)NC(=O)[C@H](CC(C)C)NC1=O`, “lipophilic permeability efficiency” read 1.94.
`CC(C)C[C@@H]1NC(=O)[C@H](CC(C)C)NC(=O)[C@@H](CC(C)C)NC(=O)[C@H](C(C)C)NC(=O)[C@@H](Cc2cscn2)NC(=O)[C@H](C)NC(=O)[C@H](CCC(=O)N2CCCC2)NC1=O`: “lipophilic permeability efficiency” 1.74.
`CC(C)C[C@@H]1NC(=O)[C@H](C)NC(=O)[C@H](CC(C)C)NC(=O)[C@@H](CC(C)C)NC(=O)[C@H](CC(C)C)NC(=O)[C@@H](C)NC(=O)[C@H](CCC(=O)N2CCCC2)NC1=O` — result for “lipophilic permeability efficiency”: 1.69.
Under “lipophilic permeability efficiency”, `CC(C)C[C@@H]1NC(=O)[C@H](CCC(=O)N2CCCC2)NC(=O)[C@H](CCC(=O)N2CCCC2)NC(=O)[C@@H](CCC(=O)N2CCCC2)NC(=O)[C@H](CC(C)C)NC(=O)[C@@H](CC(C)C)NC(=O)[C@H](CC(C)C)NC1=O` is recorded as 1.79.
`CC(C)C[C@@H]1NC(=O)[C@H](CC(C)C)NC(=O)[C@H](CC(C)C)NC(=O)[C@H](C(C)C)NC(=O)[C@H](C(C)C)NC(=O)[C@H](Cc2cscn2)NC(=O)[C@H](C)NC1=O`: “lipophilic permeability efficiency” 2.84.
`CC(C)C[C@@H]1NC(=O)[C@H](CC(C)C)NC(=O)[C@@H](CC(C)C)NC(=O)[C@H](C(C)C)NC(=O)[C@H](C(C)C)NC(=O)[C@H](C)NC(=O)[C@H](C)NC1=O` — result for “lipophilic permeability efficiency”: 2.07.

Set 2 — SMILES: NC(N)=NC(=O)c1nc(Cl)c(N2CCCCCC2)nc1N; observed: β-arrestin recruitment; action: agonist; technique: PRESTO-Tango; tested at: 10 µM; reference: untreated
For Probable G-protein coupled receptor 150 (GPR150, Homo sapiens, UniProt Q8NGU9): “fold over basal” read 1.17.
ADRA2C (Homo sapiens, UniProt P18825) — “fold over basal”: 1.32.
The “fold over basal” was 1.07 (ADRA1A (Homo sapiens, UniProt P35348)).
EDNRB (Homo sapiens, UniProt P24530) — “fold over basal”: 0.67.
The “fold over basal” was 1.1 (P2Y purinoceptor 6 (P2RY6, Homo sapiens, UniProt Q15077)).
It gave 0.61 for “fold over basal” (G-protein coupled receptor 22 (GPR22, Homo sapiens, UniProt Q99680)).

Set 3 — observed: ligand displacement; tested at: 10 µM
Target: Beta-3 adrenergic receptor (ADRB3, Homo sapiens, UniProt P13945)
Sequence of UniProt P13945 (whole entry, looked up): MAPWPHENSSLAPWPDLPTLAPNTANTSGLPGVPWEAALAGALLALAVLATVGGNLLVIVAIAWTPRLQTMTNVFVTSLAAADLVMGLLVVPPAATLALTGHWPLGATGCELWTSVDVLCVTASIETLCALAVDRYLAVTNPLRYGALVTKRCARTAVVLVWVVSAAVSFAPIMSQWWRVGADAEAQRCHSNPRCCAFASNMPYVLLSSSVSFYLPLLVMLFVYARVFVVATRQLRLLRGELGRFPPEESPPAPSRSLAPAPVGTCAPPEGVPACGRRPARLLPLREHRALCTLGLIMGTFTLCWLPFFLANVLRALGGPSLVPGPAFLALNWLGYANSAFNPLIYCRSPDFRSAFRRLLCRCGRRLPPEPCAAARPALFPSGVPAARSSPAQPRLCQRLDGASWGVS
With `NC(=O)c1ccc2nc(-c3ccc(C4(N)CCC4)cc3)c(-c3ccccc3)n2n1` the inhibition was 11.4%.
The inhibition of `C[C@@H]1CN(c2cc(-c3n[nH]c4ccc(OC5(C)CC5)cc34)ncn2)C[C@H](C)O1` is reported as -5.99%.
The inhibition of `O=C(N[C@H]1CCCCC/C=C\C2C[C@@]2(C(=O)O)NC(=O)[C@@H]2C[C@@H](Oc3ccncc3)CN2C1=O)OC1CCCC1` (stereo partly drawn) is reported as -9.47%.
With `CS(=O)(=O)N1CCCC(NC(=O)[C@H](CCC2CCCCC2)NC(=O)c2ccc(CNC(=O)c3cnc4ccccn34)cc2)C1` (stereo partly drawn) the inhibition was -12.6%.
For `N#CC1(c2ccccn2)CCN(Cc2cc(C(=O)N3CCCC3)c(=O)n3ccccc23)CC1`, the inhibition was 17.4%.
`CN([C@@H]1CCc2c(CC(=O)O)c3ccccc3n2C1)S(=O)(=O)c1ccc(F)cc1` has an inhibition of 26.9%.
With `CC(=O)N1CCC(c2ccc(C(=O)NC3=NCCN3)cc2C(F)(F)F)CC1` the inhibition was 8.52%.
The inhibition of `O=C(NCCCC1CCCCC1)c1ccc(CNC(=O)c2cnn(-c3ccccc3)c2C(F)(F)F)cc1` is reported as 21.7%.
`CN(C)CC#Cc1ccc(OCCCc2sc(N3CCc4cccc(C(=O)Nc5nc6ccccc6s5)c4C3)nc2C(=O)O)c(F)c1` has an inhibition of 3.53%.
`Cc1noc([C@H]2C[C@@H](c3ccc(C(F)(F)F)cc3)CN(C(=O)N3CCS(=O)(=O)C3)C2)n1` gave an inhibition of 19.3%.
`CN(C)C(=O)c1sc2nc(N3CCC(S(C)(=O)=O)CC3)cc(C(F)(F)F)c2c1N` gave an inhibition of -18.6%.
`CN1CCN(c2ccnc(NCCc3ccccc3)n2)CC1` has an inhibition of 2.45%.
`C[C@H](c1ccnc(Nc2nc3ccc(-c4cc(N(C)C)ncn4)cc3[nH]2)c1)N1CCN(C(=O)CC(F)(F)F)CC1` gave an inhibition of 30.4%.
`Nc1cnc(N2CCc3cc(S(=O)(=O)Nc4c(F)cc(Cl)cc4F)cc(N4CCCC4=O)c32)nc1` has an inhibition of -2.69%.

Set 4 — action: inhibitor; tested at: 10 µM; reference: control
Target: Diamine acetyltransferase 1 (Homo sapiens, UniProt P21673)
Target sequence (P21673 1-171): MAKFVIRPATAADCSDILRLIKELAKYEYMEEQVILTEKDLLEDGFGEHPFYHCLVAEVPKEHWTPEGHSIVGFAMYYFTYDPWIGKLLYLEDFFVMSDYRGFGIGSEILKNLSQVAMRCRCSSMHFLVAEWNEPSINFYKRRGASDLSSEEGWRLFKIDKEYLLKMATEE
With `Nc1nc2ncc(CNc3ccc(C(=O)N[C@@H](CCC(=O)O)C(=O)O)cc3)nc2c(=O)[nH]1` the remaining activity was 101%.
With `C[C@H](CC[C@@H](O[C@@H]1O[C@H](CO[C@@H]2O[C@H](CO)[C@@H](O)[C@H](O)[C@H]2O)[C@@H](O)[C@H](O)[C@H]1O[C@@H]1O[C@H](CO)[C@@H](O)[C@H](O)[C@H]1O)C(C)(C)O)[C@H]1CC[C@@]2(C)[C@@H]3CC=C4[C@@H](CC[C@H](O[C@@H]5O[C@H](CO[C@@H]6O[C@H](CO)[C@@H](O)[C@H](O)[C@H]6O)[C@@H](O)[C@H](O)[C@H]5O)C4(C)C)[C@]3(C)[C@H](O)C[C@]12C` the remaining activity was 101%.
For `CCCCCCCCCCCCCCCCCCCCCCCCCC(=O)O`, the remaining activity was 104%.
The remaining activity of `CCCCCCCCCCCCCCCCCCCCCCCC` is reported as 100%.
With `O=C(O)c1cccc(O)c1O` the remaining activity was 101%.
